Published values gathered from unrelated publications.
Each numbered part is a random draw from the data of one study; scales do not carry over between parts.

Block 1
Target: Histone acetyltransferase KAT6A, winged helix 2, GST fusion (KAT6A, Homo sapiens, UniProt Q92794, residues 85-181)
Technique: protein binding microarray
Molecule type: double-stranded DNA, one strand shown
Medium: in vitro
Concentration: not given
Notes: 8-mer, flanks averaged, mean of 2 arrays, mostly near background
Baseline: not given
Reading: higher = stronger binding
Residues (chain): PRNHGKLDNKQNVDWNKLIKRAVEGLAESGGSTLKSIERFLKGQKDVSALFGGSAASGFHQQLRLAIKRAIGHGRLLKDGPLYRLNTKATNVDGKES
Sequence | E-score
ATCTATCC | -0.0434
CAGCAACA | 0.18
CCGATCTC | 0.0419
ATGGAAAG | -0.0605
CTAGAAGC | 0.0135

Block 2
Target: Fragile X messenger ribonucleoprotein 1, C-terminal low-complexity region (Fmr1, Mus musculus, UniProt P35922)
Technique: RNA Bind-n-Seq
Molecule type: RNA
Medium: in vitro
Concentration: 200 nM
Notes: whole 134-nt RNA, ends assumed
With: 150 mM LiCl
Baseline: input library
Reading: higher = stronger binding
Library: 7-deaza-guanosine replaces G
Constant ends, left off below: GGGAGUUCUACAGUCCGACGAUC … UGGAAUUCUCGGGUGUCAAGG
Sequence | log2 enrichment
GCAGGAAGUAAAAACAAAUGGUAAUGCUUCGGAUAGUGGCAGGGGUGGGGGUUGCUAAGGAAAGGGUGGGAUGGGAGUGGGUAAAGAGUU | 1.39
CAAGUCCUGUGCUACACAUCGUAUGUACCGAAUCGGGUUUUGGGUUUUGGUUUUGGAAAGUAUUAUGUUACGCCGUUCGGAUCUGCACUU | -1.86
AGUCCUGUGCUACACAUCGUAUGUACCGAAUCGGAAAAAGGUUUUUUUGGUUUUUGGAAAGUAUUAUGUUACGCCGUUCGGAUCUGCACU | -3.55
GUCCUGUGCUACACAUCGUAUGUACCGAAUCGGCCCCCCGGCCCCCCGGGCCCCCCGGAAAGUAUUAUGUUACGCCGUUCGGAUCUGCAC | 1.29
UGUGCUACACAUCGUAUGUACCGAAUCGGGGUUUUUUUGGGGUUUUUUUGGGGUUUUUUUGGGAAAGUAUUAUGUUACGCCGUUCGGAUC | 2.04
UUUUCUUCUGGGGCAUUUAUCCGUGCUGAUCUUGGUGAAUGGGGCAUGAGUCUAACGAUCAGAGCCCCUAGUGUAGAUUACAGAAACACU | -0.985

Block 3
Target: TAR DNA-binding protein 43, full length, His tag (TARDBP, Homo sapiens, UniProt Q13148, residues 1-414)
Technique: RNA Bind-n-Seq
Molecule type: RNA
Medium: in vitro
Concentration: 20 nM
Notes: 6-mer, flanks averaged, single round
With: 150 mM LiCl
Baseline: input library
Reading: higher = stronger binding
Sequence | 6-mer enrichment (R)
AGUGUG | 2.01
UAUCCU | 0.895
ACUUAC | 0.854
AGGGGC | 1.18
AGAUUC | 0.825

Further values, each from its own experiment
Molecule | target | assay | system | conditions | scale | measurement | value
PhoQ, residues 284 288 289 292 302 303 GLASVI | PhoP, residues 12 14 15 18 19 NQFFI (Escherichia coli, UniProt P23836) | Sort-seq, measured: YFP reporter | E. coli | PhoQ-PhoP variant library, with: 10 µM Mg2+ | baseline: high Mg2+ state, higher = stronger signaling | fold induction | 9.55

Repeated from above (block 1):
Sequence | E-score
CCGATCTC | 0.0419
